Published values from different studies.
Protocols differ between the studies behind these lines. Several values in a cell are separate wells, animals, samples, runs or records. ± gives the spread as reported.
CTSL: Procathepsin L (CTSL, Homo sapiens, UniProt P07711)
KDR: Vascular endothelial growth factor receptor 2 (KDR, Homo sapiens, UniProt P35968)
HDAC5: Histone deacetylase 5 (HDAC5, Homo sapiens, UniProt Q9UQL6)
MAL12: Alpha-glucosidase MAL12 (MAL12, Saccharomyces cerevisiae S288c, UniProt P53341)
PDGFRB: Platelet-derived growth factor receptor beta (PDGFRB, Homo sapiens, UniProt P09619)

Structure (SMILES)	target	assay	system	conditions	IC50
CCCC[C@H](NC(=O)[C@H](Cc1ccccc1)NC(=O)[C@H](Cc1c[nH]cn1)NC(=O)CCNC(=O)[C@@H](NC(=O)[C@H](C)NC(=O)[C@H](Cc1c[nH]c2ccccc12)NC(=O)[C@H](CC(N)=O)NC(=O)[C@@H](Cc1ccc(O)cc1)NC(=O)[C@@H](CO)NC(=O)[C@H](CO)NC(=O)[C@H](N)CO)C(C)C)C(N)=O	Neuromedin-B receptor (NMBR, Homo sapiens, UniProt P28336)	NMBR activity, cell-based			0.0054 to 0.042 µM
Oc1cc2c(cc1O)C(c1ccccc1)CNCC2 (racemic)	Carbamate kinase (Giardia intestinalis, UniProt A8BB85)	enzyme activity, inhibitor, coupled luminescence			3.26 µM
N#Cc1nc(N2CCOCC2)nc(N(CCC2CCNCC2)Cc2ccc(F)cc2)n1	CTSL	enzyme activity, inhibitor, fluorescence			0.969 µM
COc1ccc(S(=O)(=O)NCc2c[nH]nc2-c2cccs2)cc1	MYH11 (Gallus gallus, UniProt P10587)	ATPase activity, inhibitor			> 50 µM
COCC1CN(C2CCN(c3cc(OC)c(Nc4ncc(Br)c(Nc5ccc6c(c5P(C)(C)=O)OCCO6)n4)cc3C)CC2)C1	Epidermal growth factor receptor (EGFR, Homo sapiens, UniProt P00533, del746-750/T790M)	kinase activity, TR-FRET		together with: ATP at Km	< 0.0015 µM
COc1cc2nccc(Oc3ccc(NC(=S)NC(C)C)c(Cl)c3)c2cc1C(N)=O	KDR				0.0301 µM
CC(/C=C/C(=O)NO)=C\[C@@H](C)C(=O)c1ccc(N(C)C)cc1	Tyrosine-protein phosphatase non-receptor type 11 (PTPN11, Homo sapiens, UniProt Q06124, T253M)	enzyme activity, inhibitor, fluorescence			> 100 µM
CCn1c(-c2nc3ccc(C(=O)N4CCCC(N)C4)cc3n2C)cc2ccccc21 (centres unmarked)	Protein-arginine deiminase type-4 (PADI4, Homo sapiens, UniProt Q9UM07)	binding, fluorescence polarisation		together with: 10 nM tracer displacement, 2 mM Ca2+	> 100 µM
CC(C)CCn1c(OC2CCN(C(=O)C3CC3)CC2)nc2c1c(=O)n(C)c(=O)n2C	Aldehyde dehydrogenase 1A1 (ALDH1A1, Homo sapiens, UniProt P00352)				0.087 ± 0.071 µM
COc1cc2nccc(Oc3ccc(NC(=S)N4CC(F)(F)C4)c(Cl)c3)c2cc1C(N)=O	KDR				0.0361 µM
O=C(N1CCCC1)n1cc(-c2ccc(-c3ccccc3)cc2)nn1	Platelet-activating factor acetylhydrolase 2, cytoplasmic (Mus musculus, UniProt Q8VDG7)	enzyme activity in cells, inhibitor			0.00014 to 0.00017 µM
N#Cc1nc(N2CCOCC2)nc(N(Cc2ccc(F)cc2)CC2CCOCC2)n1	CTSL	enzyme activity, inhibitor, fluorescence			0.094 µM
COc1cc2nccc(Oc3ccc4sc(Nc5ccc(Cl)c(F)c5)nc4c3)c2cc1C(N)=O	KDR				4.8 µM
C=CCc1ccc(O)c(-c2cc(CC=C)ccc2OCCCCCCCCCC[P+](c2ccccc2)(c2ccccc2)c2ccccc2)c1	mitochondrial complex I	complex I-dependent oxygen consumption rate, inhibitor	A-375	24 h	0.42 µM
COc1ccc2c(c1OCc1ccccc1)CC(C(=O)O)N(c1nc3ccccc3s1)C2 (centres unmarked)	Type-2 angiotensin II receptor (AGTR2, Homo sapiens, UniProt P50052)	cell-free assay, TR-FRET			~0.2 µM
Nc1nc(Cl)nc2c1ncn2Cc1cc(OCC(F)F)cc(OC(F)F)c1	Dual specificity calcium/calmodulin-dependent 3',5'-cyclic nucleotide phosphodiesterase 1C (PDE1C, Homo sapiens, UniProt Q14123)	enzyme activity, inhibitor			6.18 µM
O=C1C2=C(Nc3ccccc3SC2C2CCCCC2)c2ccccc21 (racemic)	Type II NADH dehydrogenase (Plasmodium falciparum, UniProt Q8I302)	enzyme activity, inhibitor, fluorescence NAD+ quantitation	recombinant enzyme		> 20 µM
NC1CCC(Nc2nccc(-c3cccnc3Oc3ccc(NS(=O)(=O)c4ccccc4Cl)c(F)c3)n2)CC1 (centres unmarked)	Serine/threonine-protein kinase/endoribonuclease IRE2, RNase domain (ERN2, Homo sapiens, UniProt Q76MJ5)	RNase activity, inhibitor		together with: XBP1 mini-substrate	0.0044 ± 0.0007 µM
CCOC(=O)N1CCC(Oc2nc3c(c(=O)n(C)c(=O)n3C)n2CCC(C)C)CC1	Peroxisomal multifunctional enzyme type 2 (HSD17B4, Homo sapiens, UniProt P51659)				> 57 µM
C=CC(=O)Nc1cc(Nc2nccc(-n3ccc4nc(OC)ccc43)n2)c(OC)cc1N(C)CCN(C)C	5-hydroxytryptamine receptor 2A (HTR2A, Homo sapiens, UniProt P28223)	β-arrestin recruitment, antagonist			1.31 µM
Cc1ccc2c(c1Br)C(O)(CC(=O)c1ccc3c(c1)OCO3)C(=O)N2 (centres unmarked)	Uncharacterized protein (Trypanosoma brucei brucei, UniProt Q386Q8)	enzyme activity, inhibitor, HPLC	Trypanosoma brucei		66 ± 8 µM
COc1ccc(CCNc2ncnc3sc(C)cc23)cc1OC	COUP transcription factor 2 (NR2F2, Homo sapiens, UniProt P24468)	reporter gene, inhibitor	293T transfected with NR2F2	18 h	3.2 µM
C1=[N+]2CCCC[N+]3=Cc4ccc5[n]4[Au-]23[n]2c1ccc2-c1nc2ccccc2nc1-5.F[P-](F)(F)(F)(F)F	DNA topoisomerase 1 (TOP1, Homo sapiens, UniProt P11387)	enzyme activity, inhibitor			9.2 µM
COc1cc2nccc(Oc3ccc(NC(=S)N[C@H](C)CO)c(Cl)c3)c2cc1C(N)=O	KDR				0.0551 µM
COc1ccc(O[C@@H]2O[C@H](COS(=O)(=O)O)[C@H](OS(=O)(=O)O)[C@H](O[C@@H]3O[C@H](C(=O)O)[C@@H](O[C@@H]4O[C@H](COS(=O)(=O)O)[C@H](OS(=O)(=O)O)[C@H](O[C@@H]5O[C@H](C(=O)O)[C@@H](OS(=O)(=O)O)[C@H](OCc6ccccc6)[C@H]5O)[C@H]4NC(C)=O)[C@H](OCc4ccccc4)[C@H]3O)[C@H]2NC(C)=O)cc1	Midkine (Homo sapiens, UniProt P21741)	heparin hexasaccharide binding, inhibitor, fluorescence polarisation competition		together with: fluorescein-labelled hexasaccharide probe	27 µM
OC[C@@H]1NC[C@H](O)[C@@H]1O	Lysosomal alpha-mannosidase (Drosophila melanogaster, UniProt Q9VKV1)	enzyme activity, inhibitor		together with: pNP-mannoside	7500 µM
Oc1c(C(Nc2nccs2)c2ccccc2OCc2ccccc2)ccc2cccnc12 (centres unmarked)	Genome polyprotein, NS2B-NS3 protease (Dengue virus type 2, UniProt P14340)	enzyme activity, inhibitor		0.1% CHAPS, together with: Bz-Nle-Lys-Arg-Arg-AMC substrate	3.67 ± 0.08 µM

Structure (SMILES)	target	assay	system	conditions	IC50
COC(=O)c1ccc(Cn2sc3ccccc3c2=O)cc1	HDAC5	enzyme activity, inhibitor			5.5 µM
O=c1ccc2ccc(O[C@@H]3O[C@H](CO)[C@@H](O)[C@H](O)[C@H]3O)c(O[C@@H]3O[C@H](CO)[C@@H](O)[C@H](O)[C@H]3O)c2o1	MAL12	enzyme activity, inhibitor, absorbance			> 100 µM
N#C/C(=C\c1cccc(-c2cccc3[nH]ncc23)c1)C(N)=O	Non-receptor tyrosine-protein kinase TYK2 (TYK2, Homo sapiens, UniProt P29597)	kinase activity, inhibitor		up to highest tested, together with: ATP at Km	> 10 µM
COC(=O)N1c2ccc3cn(CCc4ccccc4)nc3c2CC[C@@H]1C	CREB-binding protein, bromodomain (CREBBP, Homo sapiens, UniProt Q92793)	binding, inhibitor			~2 µM
COc1cc(Oc2ccnc3cc(OC)c(C(N)=O)cc23)ccc1NC(=S)NC1CC1	KDR				0.231 µM
C=CC1C(OC2OC(CO)C(O)C(O)C2O)OC=C2C(=O)OC(OC)CC21 (centres unmarked)	MAL12	enzyme activity, inhibitor, absorbance			> 100 µM
COc1cc2nccc(Oc3ccc(NC(=S)NCCc4ccccc4)c(Cl)c3)c2cc1C(N)=O	KDR				0.255 µM
COc1cc2nccc(Oc3ccc(NC(=O)NC4CC4)c(Cl)c3)c2cc1C(N)=O	PDGFRB	enzyme activity, inhibitor			> 0.1 µM
CCC(c1nnnn1Cc1cccs1)N1CCN(c2nc3cc(N(C)C)cc(F)c3s2)CC1 (centres unmarked)	Deoxyribonuclease-1 (DNASE1, Bos taurus, UniProt P00639)	enzyme activity, inhibitor, fluorescence DNA degradation		pH 7.5, together with: FITC-labelled DNA substrate	32 µM
CCOC(=O)c1cc2cc3cc(Cl)ccc3nc2s1	Tyrosine-protein phosphatase non-receptor type 11 (PTPN11, Homo sapiens, UniProt Q06124)	enzyme activity, inhibitor, fluorescence			12.2 µM
COc1cccc(C(=O)c2sc(Nc3ccc(F)cc3)nc2N)c1	GSK3 (Trypanosoma brucei, UniProt Q388M1)	enzyme activity, inhibitor, radiometric			0.05 µM and < 0.1 µM
O=C(O)CCC(=O)NNC(=O)c1ccccn1	Egl nine homolog 1 (EGLN1, Homo sapiens, UniProt Q9GZT9)	inhibitor, AlphaScreen		bimodal curve, rough estimate, together with: 2 µM 2-oxoglutarate	> 300 µM
CCn1c(C)c(Sc2ccc(C)cc2)c(=O)n1-c1ccccc1Cl	Tyrosine-protein kinase JAK3 (JAK3, Homo sapiens, UniProt P52333)	enzyme activity, inhibitor, ADP detection			0.0189 µM
O=C(Nc1ccc(-c2nnc(-c3ccco3)o2)cc1)c1ccco1	Nucleoside transporter 1 (Plasmodium vivax, UniProt A5K8B0)	[3H]adenosine uptake	target-expressing yeast		0.0323 ± 0.0199 µM
Cn1cc2c(n1)CN(C(=O)Nc1nc(-c3ccc(F)cc3)ccc1N)C2	HDAC5	deacetylase activity, inhibitor, recombinant enzyme			> 30 µM
COc1ccc(-c2cc(C(F)(F)F)nc(S(=O)(=O)NCC(=O)Nc3ccc(C)cc3)n2)cc1	Bifunctional 3'-5' exonuclease/ATP-dependent helicase WRN (WRN, Homo sapiens, UniProt Q14191)	ATPase activity, inhibitor, ADP-Glo		together with: ATP 60 µM	0.881 µM
COc1cc2nccc(Oc3ccc(NC(=S)Nc4cc[nH]n4)c(Cl)c3)c2cc1C(N)=O	PDGFRB				0.348 µM
CC1(C)C2CC3C(c4ccccc4)c4c(O)c(C=O)c(O)c(C=O)c4OC3(C)C1C2 (single isomer, unassigned; (+))	ATP-dependent 6-phosphofructokinase, liver type (PFKL, Homo sapiens, UniProt P17858, K677R)	enzyme activity, inhibitor			> 100 µM
Cc1cccc(/N=N/c2ccc(O)c(C3c4c([nH]c(=S)[nH]c4=O)Nc4[nH]c(=S)[nH]c(=O)c43)c2)c1	Prostaglandin G/H synthase 2 (PTGS2, Ovis aries, UniProt P79208)	enzyme activity, inhibitor, ELISA			4.78 µM
CC(C)C[C@@H]1NC(=O)[C@H]([C@@H](C)O)NC(=O)[C@H](Cc2ccccc2)NC(=O)CNC(=O)[C@H](Cc2c[nH]c3ccccc23)NC(=O)[C@H](Cc2c[nH]cn2)NC(=O)[C@H]([C@@H](C)O)NC(=O)[C@H]([C@@H](C)O)NC(=O)[C@H](C)NC(=O)C[C@@H](C(N)=O)NC1=O	72 kDa type IV collagenase (MMP2, Homo sapiens, UniProt P08253)	inhibitor		1 h preincubation, 37 °C, together with: APMA-activated enzyme	10.9 µM
COc1ccc(-c2c[nH]c3ccnc(Nc4ccc(Oc5ncnc6ccsc56)c(F)c4)c3c2=O)cc1	Hepatocyte growth factor receptor (MET, Homo sapiens, UniProt P08581)	kinase activity, inhibitor, HTRF			9.28 µM
OC(c1ccccc1)(c1ccccc1)c1ccccc1Cl	Intermediate conductance calcium-activated potassium channel protein 4 (KCNN4, Homo sapiens, UniProt O15554)	ion current, inhibitor, patch clamp			0.52 µM
Cc1cccc(S[C@@H]2O[C@H](CO)[C@@H](O)[C@H](O)[C@H]2O)c1	Sodium/glucose cotransporter 1 (SLC5A1, Homo sapiens, UniProt P13866)	transporter uptake, inhibitor, radiometric			11 µM
COc1cc2nccc(Oc3ccc(NC(=S)NC4CC4)c(Cl)c3)c2cc1C(=O)N(C)C	KDR				0.503 µM
NC1CCC(Nc2nccc(-c3cccnc3Oc3cc(Cl)c(NS(=O)(=O)c4ccccc4Cl)cc3F)n2)CC1 (centres unmarked)	Serine/threonine-protein kinase/endoribonuclease IRE1, RNase domain (ERN1, Homo sapiens, UniProt O75460)	RNase activity, inhibitor		together with: XBP1 mini-substrate	0.39 ± 0.27 µM
Cn1c(=O)n(CCCO)c(=O)c2c1nc(Oc1cccc(C3(C(F)(F)F)N=N3)c1)n2Cc1ccc(Cl)cc1	Short transient receptor potential channel 4 (TRPC4, Homo sapiens, UniProt Q9UBN4)	calcium signal, inhibitor, fluorescence			0.04 µM

Some of these lines once more:
Structure (SMILES)	target	assay	system	conditions	IC50
C=CC1C(OC2OC(CO)C(O)C(O)C2O)OC=C2C(=O)OC(OC)CC21 (centres unmarked)	MAL12	enzyme activity, inhibitor, absorbance			> 100 µM
N#Cc1nc(N2CCOCC2)nc(N(CCC2CCNCC2)Cc2ccc(F)cc2)n1	CTSL	enzyme activity, inhibitor, fluorescence			0.969 µM
Cn1cc2c(n1)CN(C(=O)Nc1nc(-c3ccc(F)cc3)ccc1N)C2	HDAC5	deacetylase activity, inhibitor, recombinant enzyme			> 30 µM
NC1CCC(Nc2nccc(-c3cccnc3Oc3cc(Cl)c(NS(=O)(=O)c4ccccc4Cl)cc3F)n2)CC1 (centres unmarked)	Serine/threonine-protein kinase/endoribonuclease IRE1, RNase domain (ERN1, Homo sapiens, UniProt O75460)	RNase activity, inhibitor		together with: XBP1 mini-substrate	0.39 ± 0.27 µM
OC(c1ccccc1)(c1ccccc1)c1ccccc1Cl	Intermediate conductance calcium-activated potassium channel protein 4 (KCNN4, Homo sapiens, UniProt O15554)	ion current, inhibitor, patch clamp			0.52 µM
COC(=O)c1ccc(Cn2sc3ccccc3c2=O)cc1	HDAC5	enzyme activity, inhibitor			5.5 µM
COc1cc2nccc(Oc3ccc(NC(=S)Nc4cc[nH]n4)c(Cl)c3)c2cc1C(N)=O	PDGFRB				0.348 µM
